Assay results pooled from the literature.
Each line is one published result; not all experiments were run side by side.
B1: protein (Streptomyces platensis, UniProt A0A023VSF1); chain MLEVPAQPTPAPREAEAAALLAATVADPWGLVAPSVYDTARLVSLAPWLDGHRERLGYLAKEQNQDGSWGAPDGYGLVPTLSAVEALLTELARTDSGAPHLSPDDLAAACADGLGALRDGLLAGPVPDTIGVEFVAPSLLADINTRLAALTEQAPGKLGAWSGTTLTSPAPDLDGALLAGVREMTEQAPLPEKLWHTLEAVTRDGTRGARPHEGAPPHNGSVGCSPAATAAWLGAAPDPAAPGVAYLRDVQARFGGPVPSITPIVYFEQAWVLNSLAASGLRYEAPAALLDSLEAGLTDEGIAAAPGLPSDSDDTAAVLFALAQHGRTHRPDSLMHFRRDGYFSCFGVERTPSTSTNAHILEALGHHVTVRPDDAGRYGAEIRMISDWLLDNQLPDGSWMDKWHASPYYATACCALALAEFGGPSARAAVDRAAAWALATQRADGSWGRWQGTTEETAYMVQLLMRTRTPGSPGTVARSAARGCDALLAHDDPASYPGLWHDKDIYAPVTVIRAARLAALALGGAASAASGGA
B2: enzyme (Astragalus mongholicus, UniProt A0A977WLP2); chain MDRVEQPLKLHVIPYLSDGHMIPLCDIAILFASRGHQVTIITTPSNVKTFQKSLPSHLHQYLHIHTIPFPSQEVGLPEGVENLSGIPDMDKLSRYTQAMTLLQPLIEEVVEHDPPDCIVADFMYPWVEELANKLRIPRLAFTCFSLFAICAMKSVMASSIHGGSGSFLIQGLPHPIRLNATPPMTLREGNMKEILDIQLKSHGLIVNNFSELDGEEYTEYYEKTINHKAWHIGPAYLIRKTAQEKAERGQGSTVSVHECMSWLNSKRDNSVLYISFGTISYLPNKQLYEIASALEACGHEFIWVVPEKKGKEDESEEEKENWLPKGFEERCIGKNKKGLLVKGWAPQLLILEHSAICAFLTHCGWNSIVEAAAAGVPMITWPVHGEQFYNEKLVTQVRGIGVEVGATEWSILGIFDRESVVRRESIEKAVRRLLDGGDEAKKIKQRAREFGDKAKRAAQEGGSSHRNLTALIEDLKRLRDNKF
B3: enzyme (Streptomyces venezuelae, UniProt Q9ZGI2); chain SGADTGAGAGMFRALFRQAVEDDRYGEFLDVLAEASAFRPQFASPEACSERLDPVLLAGGPTDRAEGRAVLVGCTGTAANGGPHEFLRLSTSFQEERDFLAVPLPGYGTGTGTGTALLPADLDTALDAQARAILRAAGDAPVVLLGHSGGALLAHELAFRLERAHGAPPAGIVLVDPYPPGHQEPIEVWSRQLGEGLFAGELEPMSDARLLAMGRYARFLAGPRPGRSSAPVLLVRASEPLGDWQEERGDWRAHWDLPHTVADVPGDHFTMMRDHAPAVAEAVLSWLDAIEGIEGAGK
B4: AK1 (Homo sapiens, UniProt P00568); chain MEEKLKKTKIIFVVGGPGSGKGTQCEKIVQKYGYTHLSTGDLLRSEVSSGSARGKKLSEIMEKGQLVPLETVLDMLRDAMVAKVNTSKGFLIDGYPREVQQGEEFERRIGQPTLLLYVDAGPETMTQRLLKRGETSGRVDDNEETIKKRLETYYKATEPVIAFYEKRGIVRKVNAEGSVDSVFSQVCTHLDALK
B5: enzyme (UniProt A0A2P1BT29); chain MNERFTLPAHSPALAALVPEFLDLARAASGDPAAEERDLAVWENLTEHVSLDYRFANPPVHGPGDWDTYDSRFVDPAGVEIGTLQGTGRILYERSSDAHLMMYYREQLTFPDGTAQTAGWVDGTAILGGAWQRFPILGSGGRYGSMIGLRSFQPTPEAPHSLYRTHLVLREIPGGHGLTDPEEIDAALSLLGAFVGPSVNPATGNGRLEPPVRAGRTA
B6: enzyme (Trypanosoma brucei, UniProt Q57W34); chain MTKGGKVAVTKGSAQSDGAGEGGMSKAKSSTTFVATGGGSLPAWALKAVSTIVSAVILIYSVHRAYDIRLTSVRLYGELIHEFDPWFNYRATQYLSDNGWRAFFQWYDYMSWYPLGRPVGTTIFPGMQLTGVAIHRVLEMLGRGMSINNICVYIPAWFGSIATVLAALIAYESSNSLSVMAFTAYFFSIVPAHLMRSMAGEFDNECVAMAAMLLTFYMWVRSLRSSSSWPIGALAGVAYGYMVSTWGGYIFVLNMVAFHASVCVLLDWARGIYSVSLLRAYSLFFVIGTALAICVPPVEWTPFRSLEQLTALFVFVFMWALHYSEYLRERARAPIHSSKALQIRARIFMGTLSLLLIVASLLAPFGFFKPTAYRVRALFVKHTRTGNPLVDSVAEHRPTTAGAYLRYFHVCYPLWGCGGLSMLVFMKKDRWRAIVFLASLSTVTMYFSARMSRLLLLAGPAATACAGMFIGGLFDLALSQFGDLHSPKDASGDSDPAGGSKRAKGKVVNEPSKRAIFSHRWFQRLVQSLPVPLRRGIAVVVLVCLFANPMRHSFEKSCEKMAHALSSPRIIAVTDLPNGERVLADDYYVSYLWLRNNTPEDARILSWWDYGYQITGIGNRTTLADGNTWSHKHIATIGKMLTSPVKESHALIRHLADYVLIWAGEDRGDLLKSPHMARIGNSVYRDMCSEDDPRCRQFGFEGGDLNKPTPMMQRSLLYNLHRFGTDGGKTQLDKNMFQLAYVSKYGLVKIYKVVNVSEESKAWVADPKNRVCDPPGSWICAGQYPPAKEIQDMLAKRFHYE
Chain of UniProt P46059 (whole entry, looked up): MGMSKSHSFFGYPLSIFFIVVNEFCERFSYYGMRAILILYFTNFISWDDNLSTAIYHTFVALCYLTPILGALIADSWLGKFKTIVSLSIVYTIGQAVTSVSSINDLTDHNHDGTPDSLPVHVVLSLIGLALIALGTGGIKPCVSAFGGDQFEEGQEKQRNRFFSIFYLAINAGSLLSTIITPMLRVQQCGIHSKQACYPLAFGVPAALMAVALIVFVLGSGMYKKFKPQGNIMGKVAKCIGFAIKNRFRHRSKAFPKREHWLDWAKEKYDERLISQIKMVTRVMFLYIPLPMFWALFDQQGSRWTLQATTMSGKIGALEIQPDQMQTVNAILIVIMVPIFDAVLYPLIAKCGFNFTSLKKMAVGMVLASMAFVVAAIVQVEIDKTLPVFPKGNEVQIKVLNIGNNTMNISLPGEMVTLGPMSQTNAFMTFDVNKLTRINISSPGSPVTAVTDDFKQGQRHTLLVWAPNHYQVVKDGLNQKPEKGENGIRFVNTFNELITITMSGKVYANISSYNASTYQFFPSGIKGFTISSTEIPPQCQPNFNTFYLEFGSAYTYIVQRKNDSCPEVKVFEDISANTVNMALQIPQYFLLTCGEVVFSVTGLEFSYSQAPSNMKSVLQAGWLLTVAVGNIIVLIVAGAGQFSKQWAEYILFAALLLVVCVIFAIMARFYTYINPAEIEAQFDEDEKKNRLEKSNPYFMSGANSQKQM
Chain of UniProt P49888 (whole entry, looked up): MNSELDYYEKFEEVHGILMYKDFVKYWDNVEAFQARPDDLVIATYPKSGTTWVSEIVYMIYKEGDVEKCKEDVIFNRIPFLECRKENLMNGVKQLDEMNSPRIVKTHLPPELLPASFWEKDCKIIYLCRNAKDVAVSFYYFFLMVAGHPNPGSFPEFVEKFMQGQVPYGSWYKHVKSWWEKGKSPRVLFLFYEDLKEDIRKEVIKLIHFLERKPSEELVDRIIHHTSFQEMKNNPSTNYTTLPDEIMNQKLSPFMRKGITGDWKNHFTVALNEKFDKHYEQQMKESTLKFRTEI

B1 (protein)  Km (CC(C)=CCC/C(C)=C/CC/C(C)=C/CC/C(C)=C/COP(=O)(O)OP(=O)(O)O; steady-state kinetics; added: Mg2+): 44 µM
B2 (enzyme)  Km (CC(C)(O)[C@@H]1CC[C@](C)([C@H]2[C@@H](O)C[C@@]3(C)[C@@H]4C[C@H](O[C@@H]5O[C@H](CO)[C@@H](O)[C@H](O)[C@H]5O)[C@H]5C(C)(C)[C@@H](O)CC[C@@]56C[C@@]46CC[C@]23C)O1; steady-state kinetics; pH 8, 35 °C): 109 µM
B3 (enzyme)  Km (CC[C@H](O)[C@H](C)/C=C/C(=O)[C@H](C)C[C@H](C)[C@H](OC)[C@@H](C)C(=O)SCCNC(C)=O; steady-state kinetics): 1040 µM
SLC15A1 (Homo sapiens, UniProt P46059)  Km (CCC(CC)[C@H](NC(C)=O)[C@@H]1[C@H](O)[C@@H](C(=O)N[C@H](C(=O)O)[C@@H](C)CC)C[C@H]1NC(=N)N; steady-state kinetics; pH 6, not purified): 5920 µM
B4 (AK1)  Km (Nc1ccn(C2OC(COP(=O)(O)O)C(O)C2O)c(=O)n1; steady-state kinetics; 37 °C, added: ATP 1 mM): 3000 µM
SULT1E1 (Homo sapiens, UniProt P49888)  Km (O=C(O[C@@H]1Cc2c(O)cc(O)cc2O[C@@H]1c1cc(O)c(O)c(O)c1)c1cc(O)c(O)c(O)c1; steady-state kinetics; pH 7.4, not purified): 3.25 µM
enzyme (Actinoalloteichus caeruleus, UniProt M1F4W9)  Km (CC(C)C[C@H](NC(=O)c1cc(O)cc(-c2ccccn2)n1)C(=O)O; steady-state kinetics; pH 8, 30 °C): 1510 µM
B5 (enzyme)  Km (C=C1OC(=O)C(C(=O)CC[C@H](C)C(=O)/C=C/C=C/C(C)=C/C)=C1O; steady-state kinetics; pH 8, 30 °C): 51.2 µM
B6 (enzyme)  Km (CC(=O)N[C@H]1[C@H](O[C@H]2[C@H](O)[C@@H](NC(C)=O)[C@@H](OP(=O)(O)OP(=O)(O)OCC[C@@H](C)CC/C=C(/C)CC/C=C(/C)CCC=C(C)C)O[C@@H]2CO)O[C@H](CO)[C@@H](O[C@@H]2O[C@H](CO)[C@@H](O)[C@H](O)[C@@H]2O)[C@@H]1O; steady-state kinetics; pH 7.5): 8.8 µM
enzyme (UniProt A0A1I5R890)  Km (Cn1cncc1C[C@H](N)C(=O)O; steady-state kinetics): 1.9 µM
RNA 1 GGAGGAUGUUAAUUGGCGUGUCUUGUCUGCAACGGUAUUC / RNA 2 GAAUACCGUUGCAGACAAGACACGCCAAUUAACAUCCUCC (dsRNA)  Kd (EIF2AK2 1-551 R107A (Homo sapiens, UniProt P19525); sedimentation velocity AUC; double-stranded RNA; Kd1 first PKR): 225 nM

Repeated from above:
SULT1E1 (Homo sapiens, UniProt P49888)  Km (O=C(O[C@@H]1Cc2c(O)cc(O)cc2O[C@@H]1c1cc(O)c(O)c(O)c1)c1cc(O)c(O)c(O)c1; steady-state kinetics; pH 7.4, not purified): 3.25 µM
